# Measurements of several laboratories.
# Each numbered part is a random draw from the data of one study; scales do not carry over between parts. Positions count from the first letter of the parent shown.

# Study 1 — technique: RNA Bind-n-Seq; molecule type: RNA; medium: in vitro; concentration: 365 nM; reference: no-protein control; direction: higher = stronger binding
# Target: RNA binding protein fox-1 homolog 2, RRM domain, GST-SBP tag (RBFOX2, Homo sapiens, UniProt O43251-10, residues 100-194)
# Notes: natural RNA segment, single round, ends assumed
# Constant ends, left off below: GGGAGUUCUACAGUCCGACGAUC … UGGAAUUCUCGGGUGCCAA
# Construct (chain): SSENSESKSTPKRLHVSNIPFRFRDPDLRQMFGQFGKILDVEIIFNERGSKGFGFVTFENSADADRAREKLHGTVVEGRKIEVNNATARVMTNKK
Oligonucleotide,RBNS enrichment (R)
CUCAGCCUCCCAAGUAGCUGAGAUUACAGGCGCCUGCCACCCCACCUGGCUGAUUUUUGUAAUUUUAGUAGAGACGGGGUUUCACCAUGUUGGCCAGGCUGAUUAACUCC,0.342
UCUUUGUAAUUAUUUCUUUAGUUUAAUUAACCUUUUGGUUGUUUGUGCAAUAUUAUAUAUUUUAAAUUAUAAUGCAUCUCCCCAGAGUAUUUUGUAGCUGGGAAAAGAAA,4.12
GGGCUAGAGAACAUACUUUACAUCUGACAUCCUUUGGCCUAACAACAUCUAUUAUUAUAGUGCUCAGCAGUGUGGGCAUUGAAGAGGCGCAGAAUGCUUUGAAAGAAACU,0.528
GUAACAAUCUGGAAGGAAACUUCACGGACAGGAAGACUGCUGGAGAAGAGAAGCGUGUUAGCCCAUUUGAGGUCUGGGGAAUCAUGUAAAGGGUACCCAGACCUCACUUU,0.411
AUUGAAUCUAUUGUAUUUCCCUCUUGAUAUUCUACCAUGGUGAUGUCAGCUCAUUUCUAAGAUGCCUUCAGAGAUCUGAGACAUGACAUUAAGAAUGGAGUAGUAACUAG,0.263
UCUUGUCUCACCAAGUUUUUUCUCUCCAAAGGUUUCCAGGAAUUUCUCAUUAAUGGCUGAUGCAAACUUAGUGAAUAAUAAUGAAUAUAAACAAUGCUCACCUCACCAAA,0.413
GCAUCCAGUAUGGUGGUGUAAUGGAAGUGUACUACUAGCACUACUACAUCAGGUCAGCACAGAUUAACUCAGUUACGUGUUAUACCUUCAAGACGCUAGACAUUCCAGAA,0.363
GCAAGGCACCUGCAGGUUGGGCCAUACUGGCCUCGCCUGGCCUGAGGUCUCGCUGAUGCUGGGCUGGGUGCGACCCCAUCUGCCCAGGACGGGGCCGGCCAGGUGGGCGG,0.357

# Study 2 — target: CCNA1, cyclin fold, Cln2 fusion (human); technique: yeast growth competition, sequencing; medium: yeast; notes: weak parent motif; reference: not given; direction: higher = stronger binding
# Parent: CDKN1B docking peptide (human); PSACRNLFGPVDH; partner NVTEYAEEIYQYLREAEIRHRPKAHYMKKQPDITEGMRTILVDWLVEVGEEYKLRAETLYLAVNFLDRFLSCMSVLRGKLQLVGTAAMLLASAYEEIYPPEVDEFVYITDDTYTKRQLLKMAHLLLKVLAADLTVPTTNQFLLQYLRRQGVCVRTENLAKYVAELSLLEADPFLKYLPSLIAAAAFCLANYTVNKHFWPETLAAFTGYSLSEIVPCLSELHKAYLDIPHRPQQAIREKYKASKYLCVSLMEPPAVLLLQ
Substitution,normalised enrichment score
D12R,0.366
A3T,0.205
A3Q,0.403
P10H,-0.108
C4I,0.36
P1L,0.243
R5P,-0.0535
R5K F8L,0.0446
G9N,0.255
L7F,0.456
R5A L7A,-0.0838
G9E,0.34
D12V,0.0931
H13W,0.577
S2H,0.383
D12T,0.415
N6G,0.223
H13L,0.348
F8M,0.291
L7S,0.384
P1W,0.307
P10Q,0.45
R5V,0.137
C4T,-0.00595
V11N,0.384

# Study 3 — technique: universal PBM; molecule type: double-stranded DNA, one strand shown; medium: in vitro; concentration: not given; direction: higher = stronger binding
# Target: Sal-like protein 4, full length isoform B (SALL4, Homo sapiens, UniProt Q9UJQ4-2, residues 1-616)
# Notes: 8-mer, flanks averaged, mean of replicates
# Residues (chain): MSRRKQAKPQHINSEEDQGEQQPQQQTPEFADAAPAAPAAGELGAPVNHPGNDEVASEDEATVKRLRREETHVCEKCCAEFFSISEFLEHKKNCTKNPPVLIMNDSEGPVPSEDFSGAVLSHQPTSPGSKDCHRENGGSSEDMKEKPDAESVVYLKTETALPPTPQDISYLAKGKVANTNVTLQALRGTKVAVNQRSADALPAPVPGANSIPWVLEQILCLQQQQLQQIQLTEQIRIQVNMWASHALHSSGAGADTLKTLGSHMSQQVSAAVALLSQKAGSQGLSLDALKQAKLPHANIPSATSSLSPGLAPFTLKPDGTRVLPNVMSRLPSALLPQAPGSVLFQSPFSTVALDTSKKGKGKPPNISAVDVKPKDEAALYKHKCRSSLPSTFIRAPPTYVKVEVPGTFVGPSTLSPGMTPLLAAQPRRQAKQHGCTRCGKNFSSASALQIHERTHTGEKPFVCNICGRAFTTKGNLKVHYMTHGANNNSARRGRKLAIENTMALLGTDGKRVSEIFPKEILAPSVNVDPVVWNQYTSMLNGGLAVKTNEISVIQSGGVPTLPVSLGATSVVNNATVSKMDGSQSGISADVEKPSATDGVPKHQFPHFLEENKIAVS
Oligonucleotide,E-score
CAGGGACA,-0.184
ACGCCTAT,0.0471
AGGGTGTG,-0.111
GTCAGAAC,-0.103
AGACGCTC,-0.216
AGAGTTTC,-0.0798
GCATAGAC,-0.0234
ATAGAAAA,0.156
GAGTTTAA,0.105
CCTAGATC,-0.0614
GCTCATCA,-0.0103
CACCTTTC,-0.138
ATTCAACC,0.0152
CACCTCTG,-0.163
GTAGGTAA,0.0518
CTTATTAC,0.329
ACCGTGGA,-0.226
ACGAATAA,0.268
ACTGAGTC,-0.0814
AATGTAGG,0.0265
TAGGCAAA,0.112
ACAACGGA,-0.0116
CGAACACA,0.0116
ATACGAGA,0.195
ATATTTGC,0.38

# Study 4 — technique: aptamer microarray, sandwich; molecule type: DNA with 2'F-ANA; medium: in vitro; concentration: 200 nM; together with: Cy3 exosite-II aptamer, 400 nM; direction: higher = stronger binding; oligonucleotide: GGTTGGTGTGGTTGG
# Target: Prothrombin, mature alpha-thrombin (F2, Homo sapiens, UniProt P00734)
# Notes: whole 15-mer aptamer, many near background
Modification,mean fluorescence intensity
2'F-ANA at 3 5 9 12 13,181 a.u.
2'F-ANA at 2 3 6 8 11 12 13 14 15,368 a.u.
2'F-ANA at 3 4 8 9 10 12 13,291 a.u.
2'F-ANA at 1 2 3 6 8 9 10 11 12 13 15,92 a.u.
2'F-ANA at 2 3 4 8 11 15,532 a.u.
2'F-ANA at 1 5 7 8 9 11 13,80.9 a.u.
2'F-ANA at 1 2 5 7 8 9 11 12 15,95.2 a.u.
2'F-ANA at 1 7 9 10 11 14 15,45.6 a.u.
2'F-ANA at 2 3 5 6 7 8 9 10 12 13 14,50.6 a.u.
2'F-ANA at 1 3 4 8 9 11 12,355 a.u.
2'F-ANA at 1 2 3 4 5 7 10 12 13 14 15,47 a.u.
2'F-ANA at 1 3 4 6 7 8 9 10 11 12 13,68.1 a.u.
2'F-ANA at 1 2 3 5 7 8 9 10 12 14,50.5 a.u.
2'F-ANA at 1 2 3 8 9 13 15,234 a.u.
2'F-ANA at 6 8 10 11 12 14,93.8 a.u.
2'F-ANA at 1 2 3 4 5 8 11 12 14 15,49.4 a.u.
2'F-ANA at 2 4 10 13 14 15,64.9 a.u.
2'F-ANA at 2 6 7 11 12 15,463 a.u.
2'F-ANA at 1 2 4 5 6 8 9 10 12 13 15,131 a.u.
2'F-ANA at 1 5 6 9 11 14,54.3 a.u.
2'F-ANA at 1 3 4 5 9 11 12 14 15,49 a.u.
2'F-ANA at 1 4 5 9 11 12 14 15,44.4 a.u.
2'F-ANA at 1 3 4 6 10 12 13,70.7 a.u.
2'F-ANA at 2 4 6 11 14 15,82.3 a.u.
2'F-ANA at 1 2 4 5 6 7 8 11 12 14,51.6 a.u.
